{"data": "Assay results pooled from the literature", "uncharacterized protein": "uncharacterized protein (Canis lupus familiaris, UniProt A0A8I3P1R6)", "HTR1E": "5-hydroxytryptamine receptor 1E (HTR1E, Homo sapiens, UniProt P28566)", "Peroxisome proliferator-activated receptor alpha": "Peroxisome proliferator-activated receptor alpha (Rattus norvegicus, UniProt P37230)", "note": "Compare with care: the assays were run in different laboratories. ± marks the error that the study gave.", "sequence of UniProt P28566 (whole entry, looked up)": "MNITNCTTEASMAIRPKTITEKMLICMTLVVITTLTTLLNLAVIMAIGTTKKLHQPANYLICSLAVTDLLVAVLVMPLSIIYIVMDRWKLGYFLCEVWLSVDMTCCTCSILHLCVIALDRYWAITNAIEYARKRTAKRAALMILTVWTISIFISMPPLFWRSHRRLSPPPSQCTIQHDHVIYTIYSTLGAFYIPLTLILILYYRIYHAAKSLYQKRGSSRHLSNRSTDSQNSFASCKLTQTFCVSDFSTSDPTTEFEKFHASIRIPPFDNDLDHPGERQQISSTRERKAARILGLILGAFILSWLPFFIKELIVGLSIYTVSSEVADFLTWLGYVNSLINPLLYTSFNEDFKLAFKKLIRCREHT", "sequence of UniProt P37230 (whole entry, looked up)": "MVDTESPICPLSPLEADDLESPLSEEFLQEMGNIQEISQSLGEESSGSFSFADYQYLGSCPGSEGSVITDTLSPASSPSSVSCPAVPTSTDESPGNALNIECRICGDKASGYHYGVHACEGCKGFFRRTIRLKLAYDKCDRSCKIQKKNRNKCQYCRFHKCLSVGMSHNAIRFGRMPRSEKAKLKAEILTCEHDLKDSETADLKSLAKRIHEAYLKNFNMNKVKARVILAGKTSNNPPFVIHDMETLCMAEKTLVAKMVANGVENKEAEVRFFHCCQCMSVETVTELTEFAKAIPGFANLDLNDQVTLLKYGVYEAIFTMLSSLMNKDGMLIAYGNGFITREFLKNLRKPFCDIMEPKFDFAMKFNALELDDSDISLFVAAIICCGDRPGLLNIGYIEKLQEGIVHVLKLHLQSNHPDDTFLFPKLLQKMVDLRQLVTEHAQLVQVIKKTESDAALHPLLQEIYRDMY", "sequence of UniProt P21728 (whole entry, looked up)": "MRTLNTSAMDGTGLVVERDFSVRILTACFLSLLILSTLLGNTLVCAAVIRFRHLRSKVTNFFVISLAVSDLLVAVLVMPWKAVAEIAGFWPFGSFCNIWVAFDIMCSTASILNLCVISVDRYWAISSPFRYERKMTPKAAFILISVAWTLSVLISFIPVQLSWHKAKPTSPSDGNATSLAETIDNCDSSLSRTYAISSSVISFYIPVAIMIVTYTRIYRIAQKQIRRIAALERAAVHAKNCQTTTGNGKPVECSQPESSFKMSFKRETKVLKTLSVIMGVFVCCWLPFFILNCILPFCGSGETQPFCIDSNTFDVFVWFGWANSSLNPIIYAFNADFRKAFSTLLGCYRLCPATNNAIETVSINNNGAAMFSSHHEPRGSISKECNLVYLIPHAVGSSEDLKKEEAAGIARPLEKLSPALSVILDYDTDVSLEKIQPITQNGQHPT", "sequence of UniProt Q15391 (whole entry, unmodified, looked up)": "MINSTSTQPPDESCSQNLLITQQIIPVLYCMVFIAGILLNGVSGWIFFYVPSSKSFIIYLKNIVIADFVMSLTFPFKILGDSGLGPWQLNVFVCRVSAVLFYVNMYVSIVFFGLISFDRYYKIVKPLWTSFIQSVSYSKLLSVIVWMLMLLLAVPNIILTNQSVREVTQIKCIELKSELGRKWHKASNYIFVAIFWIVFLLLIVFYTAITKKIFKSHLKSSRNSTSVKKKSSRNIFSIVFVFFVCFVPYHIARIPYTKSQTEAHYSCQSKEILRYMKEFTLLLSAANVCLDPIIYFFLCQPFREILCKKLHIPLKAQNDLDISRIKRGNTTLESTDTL", "sequence of UniProt P34995 (whole entry, unmodified, looked up)": "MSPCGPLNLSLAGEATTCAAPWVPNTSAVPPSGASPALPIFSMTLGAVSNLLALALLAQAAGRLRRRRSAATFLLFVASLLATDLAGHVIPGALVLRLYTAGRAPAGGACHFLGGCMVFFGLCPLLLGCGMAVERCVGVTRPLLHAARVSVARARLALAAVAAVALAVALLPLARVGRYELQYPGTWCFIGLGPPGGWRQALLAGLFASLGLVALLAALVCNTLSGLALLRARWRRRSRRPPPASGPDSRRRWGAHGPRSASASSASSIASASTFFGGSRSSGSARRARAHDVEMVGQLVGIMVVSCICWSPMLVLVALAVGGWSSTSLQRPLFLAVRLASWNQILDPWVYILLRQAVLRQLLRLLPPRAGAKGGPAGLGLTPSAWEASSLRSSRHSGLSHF", "sequence of UniProt Q8N884 (whole entry, looked up)": "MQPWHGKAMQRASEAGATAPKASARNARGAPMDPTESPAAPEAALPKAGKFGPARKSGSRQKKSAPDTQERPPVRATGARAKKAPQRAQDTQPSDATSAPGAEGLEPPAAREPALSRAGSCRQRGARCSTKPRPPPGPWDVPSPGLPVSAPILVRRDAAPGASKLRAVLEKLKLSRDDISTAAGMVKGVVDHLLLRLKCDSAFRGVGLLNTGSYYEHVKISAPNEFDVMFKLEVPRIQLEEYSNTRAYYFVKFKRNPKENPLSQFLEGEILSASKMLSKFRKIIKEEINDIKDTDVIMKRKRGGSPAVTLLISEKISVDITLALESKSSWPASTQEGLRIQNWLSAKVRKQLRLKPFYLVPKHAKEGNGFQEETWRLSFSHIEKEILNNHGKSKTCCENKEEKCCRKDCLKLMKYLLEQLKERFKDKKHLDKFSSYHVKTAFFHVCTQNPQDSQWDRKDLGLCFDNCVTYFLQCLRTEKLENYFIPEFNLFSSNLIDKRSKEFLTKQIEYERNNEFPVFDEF", "sequence of UniProt Q13258 (whole entry, unmodified, looked up)": "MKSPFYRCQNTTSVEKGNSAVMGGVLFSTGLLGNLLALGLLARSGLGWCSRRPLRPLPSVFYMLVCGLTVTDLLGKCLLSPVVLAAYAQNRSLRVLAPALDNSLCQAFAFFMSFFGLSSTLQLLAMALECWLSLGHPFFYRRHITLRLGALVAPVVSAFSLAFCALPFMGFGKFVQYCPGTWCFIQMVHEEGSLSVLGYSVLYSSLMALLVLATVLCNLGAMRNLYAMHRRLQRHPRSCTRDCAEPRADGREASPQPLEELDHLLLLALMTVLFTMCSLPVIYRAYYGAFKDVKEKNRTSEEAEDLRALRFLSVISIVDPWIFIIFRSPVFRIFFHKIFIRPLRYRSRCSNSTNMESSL", "sequence of UniProt P03951 (whole entry, looked up)": "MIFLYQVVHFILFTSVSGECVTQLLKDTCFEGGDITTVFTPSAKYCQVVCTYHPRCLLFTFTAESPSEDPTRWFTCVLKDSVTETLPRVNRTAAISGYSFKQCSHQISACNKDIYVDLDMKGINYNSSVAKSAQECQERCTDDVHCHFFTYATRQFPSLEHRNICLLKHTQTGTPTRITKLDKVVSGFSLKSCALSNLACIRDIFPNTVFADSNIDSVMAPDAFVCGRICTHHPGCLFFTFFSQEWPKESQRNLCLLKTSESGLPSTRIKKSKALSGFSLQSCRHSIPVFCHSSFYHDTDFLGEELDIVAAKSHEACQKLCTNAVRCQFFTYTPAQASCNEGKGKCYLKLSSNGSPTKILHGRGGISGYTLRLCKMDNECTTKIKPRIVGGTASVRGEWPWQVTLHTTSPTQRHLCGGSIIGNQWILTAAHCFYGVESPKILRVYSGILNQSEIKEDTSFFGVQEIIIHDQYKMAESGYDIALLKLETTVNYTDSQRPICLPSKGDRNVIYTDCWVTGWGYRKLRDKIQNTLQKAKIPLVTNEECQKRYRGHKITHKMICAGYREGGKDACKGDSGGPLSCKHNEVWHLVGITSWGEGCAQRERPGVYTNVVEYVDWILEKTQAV", "sequence of UniProt P14618 (whole entry, looked up)": "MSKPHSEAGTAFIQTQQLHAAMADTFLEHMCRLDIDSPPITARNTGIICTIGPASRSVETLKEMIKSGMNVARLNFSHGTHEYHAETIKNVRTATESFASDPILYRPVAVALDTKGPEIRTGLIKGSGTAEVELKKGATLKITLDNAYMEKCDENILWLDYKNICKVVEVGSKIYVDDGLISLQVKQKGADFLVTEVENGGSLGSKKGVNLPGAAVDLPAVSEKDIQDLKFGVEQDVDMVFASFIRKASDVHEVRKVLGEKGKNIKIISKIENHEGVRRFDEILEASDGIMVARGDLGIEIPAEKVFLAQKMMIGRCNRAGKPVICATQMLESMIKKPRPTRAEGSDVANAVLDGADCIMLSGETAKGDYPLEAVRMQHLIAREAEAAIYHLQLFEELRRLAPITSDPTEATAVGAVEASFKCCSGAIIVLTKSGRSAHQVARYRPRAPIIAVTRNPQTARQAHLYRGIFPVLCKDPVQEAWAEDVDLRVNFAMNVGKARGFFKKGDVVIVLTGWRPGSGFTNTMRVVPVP", "sequence of UniProt O97666 (whole entry, looked up)": "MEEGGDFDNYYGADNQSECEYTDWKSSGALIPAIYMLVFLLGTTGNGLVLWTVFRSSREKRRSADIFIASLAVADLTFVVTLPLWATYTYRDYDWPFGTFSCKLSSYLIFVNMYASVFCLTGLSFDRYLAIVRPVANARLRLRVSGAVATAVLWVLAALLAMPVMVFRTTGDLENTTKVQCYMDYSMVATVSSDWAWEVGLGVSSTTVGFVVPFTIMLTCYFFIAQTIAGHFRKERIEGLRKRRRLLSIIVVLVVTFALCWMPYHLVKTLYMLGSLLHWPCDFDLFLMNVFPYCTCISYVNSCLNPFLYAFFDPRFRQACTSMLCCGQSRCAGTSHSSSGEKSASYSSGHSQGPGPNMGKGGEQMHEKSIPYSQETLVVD"}
{"SMILES": "Cn1cc2c(C(=O)O)ccc(NS(=O)(=O)c3ccc(OCC4CCC4)c(Cl)c3)c2n1", "target": "DRD1 (Homo sapiens, UniProt P21728)", "assay": "agonist", "EC50 [µM]": "> 10"}
{"SMILES": "CCc1ncc(C)nc1CC", "target": "uncharacterized protein", "assay": "cAMP level, agonist, cAMP luminescence", "system": "HEK293 cells", "EC50 [µM]": "61.7 ± 12.3"}
{"SMILES": "C[C@@H](NC(=O)N1C(=O)[C@H](Cc2ccnc(N)c2)[C@H]1C(=O)O)C1CCCCC1", "target": "F11 (Homo sapiens, UniProt P03951)", "assay": "FXI coagulant activity, inhibitor, Emax PK/PD model", "system": "human, plasma", "scale": "relative to: baseline", "EC50 [µM]": 3.47}
{"SMILES": "CN(C)CCC=C1c2ccccc2C=Cc2ccccc21", "target": "HTR1E", "assay": "agonist", "EC50 [µM]": 0.425}
{"SMILES": "CCO[C@H](COc1ccc(C(F)(F)F)cc1)CSc1ccc(OCC(=O)O)c(C)c1", "target": "Peroxisome proliferator-activated receptor alpha", "assay": "receptor activation, agonist, luciferase reporter", "setting": "serum-free, species rat", "EC50 [µM]": 22}
{"SMILES": "COc1nccnc1CC(C)C", "target": "uncharacterized protein", "assay": "cAMP level, agonist, cAMP luminescence", "system": "HEK293 cells", "EC50 [µM]": "148 ± 27.2"}
{"SMILES": "Nc1nc2c(ncn2[C@@H]2O[C@@H]3COP(=O)(O)O[C@H]3[C@H]2O)c(=O)[nH]1", "target": "Cone cGMP-gated channel (Morone saxatilis, UniProt Q3I0N1+Q3I0N2)", "assay": "channel current, agonist, suction electrode", "system": "Morone saxatilis cone outer segments", "setting": "together with: 5 µM Ca2+", "EC50 [µM]": 295}
{"SMILES": "Nc1ncnc2c1ncn2[C@@H]1O[C@H](COP(=O)(O)OP(=O)(O)O[C@H]2O[C@H](CO)[C@@H](O)[C@H](O)[C@H]2O)[C@@H](O)[C@H]1O", "target": "P2Y purinoceptor 14 (P2RY14, Homo sapiens, UniProt Q15391, F191C)", "assay": "calcium mobilisation, agonist", "system": "cells with Gαqi5", "setting": "receptor mutant F191C", "EC50 [µM]": "0.42 ± 0.022"}
{"SMILES": "CSc1ccc(C(=O)/C=C/c2cc(C)c(OC(C)(C)C(=O)O)c(C)c2)cc1", "target": "Peroxisome proliferator-activated receptor alpha", "assay": "receptor activation, agonist, luciferase reporter", "setting": "serum-free, species rat", "EC50 [µM]": 0.7}
{"SMILES": "O=C(COP(=O)(O)O)[C@@H](O)[C@H](O)[C@H](O)COP(=O)(O)O", "target": "Pyruvate kinase PKM (PKM, Homo sapiens, UniProt P14618)", "assay": "pyruvate kinase activity, activator", "system": "A549 cell lysate", "setting": "without AIM", "EC50 [µM]": "0.0332 ± 0.0112"}
{"SMILES": "CN1CCN2c3ncccc3Cc3ccccc3C2C1 (stereo not shown)", "target": "HTR1E", "assay": "agonist", "EC50 [µM]": 0.614}
{"SMILES": "CCc1nccnc1C", "target": "uncharacterized protein", "assay": "cAMP level, agonist, cAMP luminescence", "system": "HEK293 cells", "EC50 [µM]": "338 ± 1.99"}
{"SMILES": "CCOCc1nc(O)c(-c2nnc(Cc3ccc(Cl)cn3)o2)c(O)c1-c1c(OC)cccc1OC", "target": "Apelin receptor (APLNR, Macaca mulatta, UniProt O97666)", "assay": "cAMP inhibition, agonist", "system": "HEK293", "setting": "monkey receptor", "EC50 [µM]": "8e-05 ± 4e-05"}
{"SMILES": "Cc1cnc(C)cn1", "target": "uncharacterized protein", "assay": "cAMP level, agonist, cAMP luminescence", "system": "HEK293 cells", "EC50 [µM]": "> 1500"}
{"SMILES": "Cc1nn(-c2nc3c(F)cc(F)cc3s2)c(O)c1C(c1ccccc1C(=O)O)c1c(C)nn(-c2nc3c(F)cc(F)cc3s2)c1O", "target": "Cyclic GMP-AMP synthase, catalytic domain; with DNA (CGAS, Homo sapiens, UniProt Q8N884)", "assay": "cGAS-DNA condensate disruption", "setting": "concentration not given, together with: Cy3-labelled DNA", "EC50 [µM]": "1.2 ± 0.2"}
{"SMILES": "Cc1cnccn1", "target": "uncharacterized protein", "assay": "cAMP level, agonist, cAMP luminescence", "system": "HEK293 cells", "EC50 [µM]": "> 1500"}
{"SMILES": "CCCCC[C@H](O)/C=C/[C@H]1[C@H](O)CC(=O)[C@@H]1C/C=C\\CCCC(=O)O", "target": "PTGER1 (Homo sapiens, UniProt P34995, P39A)", "assay": "IP1 accumulation, agonist", "system": "AD293", "setting": "EP1 P39A mutant", "EC50 [µM]": 0.00386}
{"SMILES": "Cc1cnc(C)c(C)n1", "target": "uncharacterized protein", "assay": "cAMP level, agonist, cAMP luminescence", "system": "HEK293 cells", "EC50 [µM]": "600 ± 39.8"}
{"SMILES": "CCCCC[C@H](O)/C=C/[C@H]1C(=O)C[C@H](O)[C@@H]1C/C=C\\CCCC(=O)O", "target": "PTGDR (Homo sapiens, UniProt Q13258, K76R)", "assay": "Gs protein activation, agonist, BRET", "EC50 [µM]": 4.17}
{"note": "For quick reference, copied from above:"}
{"SMILES": "CCCCC[C@H](O)/C=C/[C@H]1C(=O)C[C@H](O)[C@@H]1C/C=C\\CCCC(=O)O", "target": "PTGDR (Homo sapiens, UniProt Q13258, K76R)", "assay": "Gs protein activation, agonist, BRET", "EC50 [µM]": 4.17}
